Assay results of several laboratories.
A part holds a random share of what one study measured. Positions count from the first letter of the parent shown.

Series 1
Target: CCND2, cyclin fold, Cln2 fusion (human)
Method: yeast growth competition, sequencing
Medium: yeast
Setting: weak parent motif
Baseline: not given
Reading: higher = stronger binding
Starting sequence: RBL1 docking peptide (human); GSAKRRLFGEDPP; partner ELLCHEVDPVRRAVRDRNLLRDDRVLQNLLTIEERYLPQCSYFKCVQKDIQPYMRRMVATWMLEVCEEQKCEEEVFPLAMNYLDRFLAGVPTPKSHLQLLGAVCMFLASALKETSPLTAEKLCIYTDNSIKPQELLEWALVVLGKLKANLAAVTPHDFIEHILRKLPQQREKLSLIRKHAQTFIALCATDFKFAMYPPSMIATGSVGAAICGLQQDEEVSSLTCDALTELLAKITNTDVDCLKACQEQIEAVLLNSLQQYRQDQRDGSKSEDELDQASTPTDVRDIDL
Change	normalised enrichment score
GSAKRRLFGEKPP [D11K]	0.0585
GSAKRRLCGEDPP [F8C]	0.133
GSAKRDLFGEDPP [R6D]	-0.306
GSAKRRLFGEDKP [P12K]	0.625
GSAKRRLFGFDPP [E10F]	0.201
GSAKRRLTGEDPP [F8T]	0.171
GSAKRRLFGEDIP [P12I]	0.32
GSASRRLFGEDPP [K4S]	0.0504
GSAKRRLFSEDPP [G9S]	0.641
GSAKRRLFPEDPP [G9P]	0.184
GSAKRVLFGEDPP [R6V]	0.0644
GSAKQRLFGEDPP [R5Q]	0.14
GGAKRRLFGEDPP [S2G]	0.169
GSAKRRLFGCDPP [E10C]	0.12
DSAKRRLFGEDPP [G1D]	0.202
GSAKRRLFGEDPS [P13S]	-0.011
WSAKRRLFGEDPP [G1W]	0.342
GSAKDRLFGEDPP [R5D]	0.248
GSAKRRGFGEDPP [L7G]	0.0882
GSAKRTLFGEDPP [R6T]	-0.155
GSAKRMLFGEDPP [R6M]	-0.0352
GSAKARLFGEDPP [R5A]	-0.00475
GSAKERLFGEDPP [R5E]	0.042
GSAPRRLFGEDPP [K4P]	-0.236
GSRKRRLFGEDPP [A3R]	0.279

Series 2
Target: RNA binding protein fox-1 homolog 2, RRM domain, GST-SBP tag (RBFOX2, Homo sapiens, UniProt O43251-10, residues 100-194)
Method: RNA Bind-n-Seq
Molecule type: RNA
Medium: in vitro
Tested at: 365 nM
Setting: natural RNA segment, single round, ends assumed
Baseline: no-protein control
Reading: higher = stronger binding
Shared flanks, not repeated: GGGAGUUCUACAGUCCGACGAUC … UGGAAUUCUCGGGUGCCAA
Residues (chain): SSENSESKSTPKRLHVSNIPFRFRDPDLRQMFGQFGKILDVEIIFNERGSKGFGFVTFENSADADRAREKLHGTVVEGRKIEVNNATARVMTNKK
Strand	RBNS enrichment (R)
AUUUGUUUCAACUGAAUUUUGGUGGUGUCAGUGCCAUUAUCUAGCACCCUGAUUUUUUUUUUUUUACUAUAACCAGGGUUUCAUUCUGUCUUUUUCCACUGAAGUGUGAC	0.575
ACCUUGUUACAGUUGGUUUAGUGUAGUGGAUUAUUGACAUGACAUCAUGAGAAGAUGUGUAAUUUUAUACCACAUUUAUAAAACAUGAUUUUGUUUUCUACCCUUCAAGG	0.376
CUGUAAGAGAAUAGAAUGGCCUUGAGAGUUUAUGAAGGAUUUGCACACUCGUCUUGCCUAGGAAGUGCAAUCUCCUUGUGACUGGAGCACACUGGCAGCCUUCAGGUGUC	7.38
AUGAUGAAACAUUCAUUUUUACCUUGUGGAUGCUAGUGCUGUAGAGUUCACUGUUGUACACAGUCUGUUUUCUAUUUGUUAAGAAAAACUACAGCAUCAUUGCAUAAUUC	1.01
UUUUCCCCCUUAGCACUUGUAUGAGUGAGGAGAAAGUUAGGUAAAGAUUGAAACUAUAAAUUACAGUGCAGUAAACUGUGCUAGGGAAGGAAUCAGUUACUAUUUAAGUU	0.679
AACUUUUAGGACGAGCACUUGGGAGUGUGAGGCCUUCCUGGCUGCUUCUAUGUAGUCCUACCACCUGCACAGAGGGGCUGGCAGGGCAGAAGUGUGACCUCAGUUAUAUA	0.543
CUUUGUUACUUAAUGUGCUUUCAGUACAGCAGAUAUGCAAUAUUCACCAAAUAAAUGUAGACUGUGUAAUAUUUAUUGAAUCCCUGUGUGCAAAGGGCUCUGAUAAGAGC	0.271
AGAGACAAUCCUCUUCAUGGGCCAAGUGAUGGAGCCUUGACAGUGGGAAGAGACGCCUUCAUUUGGGACGAAACUGGAGAUGUUAUAAGCAGAAACUCUGAAGAAAAGGA	0.487
GGUGCACGGAGAGCCUGCCCACUAGUCUUCUGAGAUCUUGGGCCUGUUGCUAGCCACGUGGGAAGCUCAUCUUUCCCAGCAUCUACCCUGCUCUGAAAAUAGGUGCCCAG	2.38
CUGACCUAGCUCAUAGGGCAAAUGGUCCUAAUAGGAUGGGCAAUCCAGAUGCCUGAGCCCCUUCACUCCGACAGCACCAGCGCCUAAUGCAGCCUUUUCAUUCUUGCCAU	0.364
GACCUGAUUAAAAUGAAGGGAUUUAAUCGUUGUUAAAGUUAAGUUAGUCAAAUAAAUUACCUACUGGAAUAUAGCCCAAGCCAGUAAAGGUUUAAUAUUUGCAUUUUCGU	0.485
CCCCCAAGGACUGCAGGGCUUUCCCAAGCUGAGGCAGGAACGUGAGGCCAGGGAAGAGUGAGCUUCACCCUCAUCCCACGCUGUCCUCCUCAACCCACCAUGCUCAUCAU	0.321

Series 3
Target: Homeobox protein Hox-B13, full length (HOXB13, Homo sapiens, UniProt Q92826, residues 1-284)
UniProt Q92826, sequence (whole entry, looked up): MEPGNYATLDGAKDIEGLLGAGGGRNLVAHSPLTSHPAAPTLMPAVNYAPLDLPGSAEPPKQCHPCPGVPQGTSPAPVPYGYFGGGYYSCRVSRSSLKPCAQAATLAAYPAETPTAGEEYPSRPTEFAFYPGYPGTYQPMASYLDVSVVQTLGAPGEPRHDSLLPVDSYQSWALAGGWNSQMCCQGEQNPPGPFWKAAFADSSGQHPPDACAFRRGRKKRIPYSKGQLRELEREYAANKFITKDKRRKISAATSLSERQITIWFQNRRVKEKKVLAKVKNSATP
Method: protein-binding microarray
Molecule type: hairpin DNA
Medium: in vitro
Tested at: not given
Setting: whole hairpin DNA, median over replicate spots
Baseline: not given
Reading: higher = stronger binding
Strand	median fluorescence [a.u.]
GAGGCCGTTTTATAGGGGCCTCCTGGCCCCTATAAAACGGCCTCACACTC	4990
GAGGCCGTTTTACGACGGCCTCCTGGCCGTCGTAAAACGGCCTCACACTC (5mC at 16)	4420
GAGGCCGTTTTCGGAGGGCCTCCTGGCCCTCCGAAAACGGCCTCACACTC (5mC at 12 32)	3780
GAGGCCGTTCGATTGGGGCCTCCTGGCCCCAATCGAACGGCCTCACACTC (5mC at 34)	3950
GAGGCCGTCGTATTGGGGCCTCCTGGCCCCAATACGACGGCCTCACACTC (5mC at 35)	4040
GAGGCCGTTTCATTGGGGCCTCCTGGCCCCAATGAAACGGCCTCACACTC (5mC at 11)	4440
GAGGCCGCGTTATTGGGGCCTCCTGGCCCCAATAACGCGGCCTCACACTC (5mC at 8)	4210
GAGGCCGTTTTATTCGGGCCTCCTGGCCCGAATAAAACGGCCTCACACTC	4180
GAGGCCGTTCGATTGGGGCCTCCTGGCCCCAATCGAACGGCCTCACACTC (5mC at 10 34)	3950
GAGGCCGTTTCGTTGGGGCCTCCTGGCCCCAACGAAACGGCCTCACACTC	4010
GAGGCCGCGTTACGAGGGCCTCCTGGCCCTCGTAACGCGGCCTCACACTC (5mC at 36)	4360
GAGGCCGTTTCGTTGGGGCCTCCTGGCCCCAACGAAACGGCCTCACACTC (5mC at 11 33)	4200
GAGGCCGTTTTACCAGGGCCTCCTGGCCCTGGTAAAACGGCCTCACACTC	4160
GAGGCCGTTTTACCGGGGCCTCCTGGCCCCGGTAAAACGGCCTCACACTC (5mC at 14 30)	4270
GAGGCCATTTTATTGGGGCCTCCTGGCCCCAATAAAATGGCCTCACACTC	5100
GAGGCCGTCTTACGAGGGCCTCCTGGCCCTCGTAAGACGGCCTCACACTC	4200
GAGGCCGTTTTATTGGGGCCTCCTGGCCCCAATAAAACGGCCTCACACTC (5mC at 38)	4990
GAGGCCGTTTTACGGGGGCCTCCTGGCCCCCGTAAAACGGCCTCACACTC (5mC at 13)	4630

Series 4
Target: Sal-like protein 4, full length isoform B (SALL4, Homo sapiens, UniProt Q9UJQ4-2, residues 1-616)
Method: universal PBM
Molecule type: double-stranded DNA, one strand shown
Medium: in vitro
Tested at: not given
Setting: 8-mer, flanks averaged, mean of replicates
Reading: higher = stronger binding
Strand	E-score
CAGGATGC	-0.28
AATTGGTG	0.133
AAATGGGG	-0.0959
CTGACCAG	-0.209
GAATCAAC	0.0937
AGGGGCCG	-0.325
CTCGCCAA	-0.126
TAAGCTCA	-0.0684
AACTTCGC	-0.0983
CGTAGGGC	-0.125
AACCGTTC	-0.0499
CATATCGC	0.151
CTCCCATC	-0.00072
TCACGTGA	0.0345
CAAGATTC	0.0186
ACCATGAC	-0.129
GGTGTTAA	0.0259
CCCTGCTC	-0.159
CCGCATAC	-0.0746
CTTCCCGC	-0.174
CGATCAGA	-0.0241
CTTCTGGC	-0.136
GTGTAATA	0.325
CGAAGTTA	0.0612
CAGCTATG	0.137

Series 5
Target: ABI1, truncated, D143A, DHFR fusion (Arabidopsis thaliana)
Method: DHFR PCA, deep sequencing
Medium: yeast
Setting: methotrexate growth selection, single substitutions
With: (+)-ABA 1.4 µM
Baseline: wild-type fitted maximum
Reading: higher = stronger binding
Starting sequence: PYL1, truncated, DHFR fusion (Arabidopsis thaliana); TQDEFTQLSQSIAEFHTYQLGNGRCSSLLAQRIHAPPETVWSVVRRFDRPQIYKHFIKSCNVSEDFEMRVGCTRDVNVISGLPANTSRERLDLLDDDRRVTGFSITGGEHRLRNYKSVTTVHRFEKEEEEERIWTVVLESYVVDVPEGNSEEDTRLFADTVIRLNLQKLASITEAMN
Change	relative binding score [%]
H110F	3.79
P146K	-3.26
K54Q	2.61
T73Y	72.4
G108W	-4
D97G	39.5
I79C	50.9
S63V	36.9
I57M	3.41
R45W	-4.03
Q19P	66.1
S171I	22.8
T73Q	45.8
H55P	109
E129V	47.5
F66Y	31.7

Series 6
Target: ATF3, bZIP domain (human)
Method: DHFR protein complementation
Medium: yeast
Setting: single substitutions, most at no-binding floor
Baseline: wild-type JUN-FOS pair
Reading: higher = stronger binding
Starting sequence: JUN, bZIP domain (human); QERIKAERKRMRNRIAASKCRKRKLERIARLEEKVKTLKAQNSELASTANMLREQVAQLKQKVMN; partner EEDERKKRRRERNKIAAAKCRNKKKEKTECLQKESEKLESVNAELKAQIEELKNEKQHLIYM
Change	binding fitness
A57G	-0.22 natural log
I28F	-0.256 natural log
A57T	-0.161 natural log
R30M	-0.101 natural log
T37H	0.0316 natural log
A29G	-0.215 natural log
E54C	-0.397 natural log
K39M	-0.415 natural log
K39L	-0.379 natural log
A46L	-0.0713 natural log
E33P	-1.25 natural log
A49E	-0.36 natural log
E33T	-0.259 natural log
V35R	-0.951 natural log
V56C	-0.173 natural log
A57R	-0.171 natural log
R30T	0.0128 natural log
K36W	-0.366 natural log
Q41R	-0.247 natural log
M51L	-0.0509 natural log
M51V	-0.129 natural log

Repeated from above (series 3):
Strand	median fluorescence [a.u.]
GAGGCCGTTCGATTGGGGCCTCCTGGCCCCAATCGAACGGCCTCACACTC (5mC at 10 34)	3950
GAGGCCGTTCGATTGGGGCCTCCTGGCCCCAATCGAACGGCCTCACACTC (5mC at 34)	3950
GAGGCCGTTTCGTTGGGGCCTCCTGGCCCCAACGAAACGGCCTCACACTC	4010
GAGGCCGTTTTCGGAGGGCCTCCTGGCCCTCCGAAAACGGCCTCACACTC (5mC at 12 32)	3780
GAGGCCGTTTTACCAGGGCCTCCTGGCCCTGGTAAAACGGCCTCACACTC	4160
GAGGCCGCGTTATTGGGGCCTCCTGGCCCCAATAACGCGGCCTCACACTC (5mC at 8)	4210
GAGGCCGTCGTATTGGGGCCTCCTGGCCCCAATACGACGGCCTCACACTC (5mC at 35)	4040
GAGGCCGTTTTATAGGGGCCTCCTGGCCCCTATAAAACGGCCTCACACTC	4990
GAGGCCGTTTTACGACGGCCTCCTGGCCGTCGTAAAACGGCCTCACACTC (5mC at 16)	4420
GAGGCCGTTTCATTGGGGCCTCCTGGCCCCAATGAAACGGCCTCACACTC (5mC at 11)	4440
GAGGCCGTTTTACCGGGGCCTCCTGGCCCCGGTAAAACGGCCTCACACTC (5mC at 14 30)	4270
GAGGCCGTTTTATTGGGGCCTCCTGGCCCCAATAAAACGGCCTCACACTC (5mC at 38)	4990
GAGGCCGTTTTATTCGGGCCTCCTGGCCCGAATAAAACGGCCTCACACTC	4180
GAGGCCGTCTTACGAGGGCCTCCTGGCCCTCGTAAGACGGCCTCACACTC	4200
GAGGCCATTTTATTGGGGCCTCCTGGCCCCAATAAAATGGCCTCACACTC	5100
